Published values gathered from unrelated publications.
Compare with care: the assays were run in different laboratories. “And” joins repeats or separate records; there may be more than shown. ± gives the spread as reported. Values after ≈ are worked out from the molar mass of the structure shown.

| Structure (SMILES) | target or system | assay | system | conditions | scale | endpoint | value |
| --- | --- | --- | --- | --- | --- | --- | --- |
| CCN(Cc1ccccc1)C(=O)CCc1nc(CN2CCN(C(=O)Cc3ccc(OC)c(OC)c3)CC2)no1 | – | current clamp | DRG neurons, naive rat | 3 µM | – | resting membrane potential | -59.5 ± 2.48 mV |
| COc1cc(C(SC(C)C)SC(C)C)ccc1OCCNS(=O)(=O)c1ccc(Cl)cc1 | tobacco mosaic virus | inactivation activity | in vivo plant | – | – | EC50 | 57.7 ± 1.4 µg/mL (≈ 114 µM) |
| CC(C)C[C@H](NC(=O)[C@H](CC(=O)O)NC(=O)CNC(=O)[C@@H](N)CCCNC(=N)N)C(=O)N[C@@H](C)C(=O)N[C@H](C(=O)N[C@@H](CC(C)C)C(=O)N[C@@H](CCCNC(=N)N)C(=O)N[C@@H](CCC(N)=O)C(=O)N[C@@H](CC(C)C)C(=O)N[C@@H](C)C(=O)N[C@@H](CCC(N)=O)C(=O)N[C@@H](CCC(=O)O)C(=O)N[C@@H](CC(=O)O)C(=O)NCC(=O)N[C@H](C(=O)N[C@H](C(=O)NCC(=O)N[C@H](C(=O)N[C@@H](CCCNC(=N)N)C(=O)NCCOCCOCCOCCOCCOCCOCCOCCOCCOCCOCCOCCOCCC(=O)N[C@@H](CS)C(N)=O)C(C)C)C(C)C)C(C)C)[C@@H](C)O | PC-3 prostate cancer | phage binding | – | – | baseline: targeting over control phage | selectivity ratio | 0.8 ± 0.26 |
| Cc1cc(C(=O)Nc2nc3cccc(C)c3n2[C@H]2CCCCN(C(=O)/C=C/CN(C)C)C2)ccn1 | Trypanosoma brucei | cell growth, Alamar Blue | 2T1 overexpressing Tb927.11.10520 | – | baseline: parental 2T1 | EC50 fold shift | 1.52 fold and 0.75 fold |
| COc1ccccc1-c1n[nH]c2nc(NC3CCN(C(=O)Cc4ccc(F)cc4F)CC3)ncc12 | – | bead binding, competition bead pull-down, item: LINJ.25.1160 | Leishmania donovani axenic amastigote extract | 10 µM | baseline: vehicle | relative abundance | 1.4 |
| O=C(O)C(Cl)Cl.OCCN(CCO)CCO | Eleusine indica | – | – | 15 mg/mL, 21 days, pre-emergence, greenhouse | – | herbicidal inhibition | 0% |
| CCN(CC)Cc1cc(Nc2c(C3CCCC3)c(C)nc3cc(Cl)ccc23)ccc1O | West Nile virus | viral replication, Rluc reporter replicon | Vero WNV replicon cells | 50 µM, 24 h | – | inhibition | 99.8 ± 0.01% |
| Cc1cc(Oc2nc(N3CC[C@@H](c4ccncc4)C3)ncc2F)[nH]n1 | Connective cancer cell lines | cell proliferation | – | – | – | IC50 | 52.5 µM |
| CCCSC(SCCC)c1ccc(OCCNS(=O)(=O)c2ccc(C)cc2)cc1 | Tobacco mosaic virus | curative activity | plant in vivo | – | – | EC50 | 258.5 ± 2.3 µg/mL (≈ 570 µM) |
| CC(C)CC(C(=O)N1CC2(CC1C#N)C(=O)Nc1ccccc12)N(C)C(=O)c1cc2c(F)cc(F)c(F)c2[nH]1 (stereo not shown) | human coronavirus 229E | viral replication | – | 0.0111 µM | – | inhibition | 100% |
| COc1ccccc1-c1n[nH]c2nc(N[C@H]3CC[C@H](NS(=O)(=O)CC(C)C)CC3)ncc12 | – | bead binding, competition bead pull-down, item: LMJF.01.0320 | Leishmania donovani extract | 10 µM | baseline: vehicle | relative abundance | 1.03 |
| CCc1ccn2c(C(=O)NCc3ccc(C)cc3)c(C)nc2c1 | Mycobacterium avium | microbial growth | – | 6 days | – | MIC | 46.3 µM (≈ 14.2 µg/mL) |
| CC1CCC2C(C)C(OC(=O)CCC(=O)N3CCC(Nc4ccc(S(=O)(=O)NC(=O)c5ccc(N6CCN(CC7=C(c8ccc(Cl)cc8)CC(C)(C)CC7)CC6)cc5Oc5cnc6[nH]ccc6c5)cc4[N+](=O)[O-])CC3)OC3OC4(C)CCC1C32OO4 (stereo not shown) | THP-1 | annexin V/PI flow cytometry, item: annexin V+/PI- | – | 1.6 µM, 24 h | – | early apoptotic cells | 58.3% |
| CC(C)CC(O)(CC(C)C)c1cn(C(=O)N2CCCC2)nn1 | mouse T-cells | protein abundance, unenriched SILAC proteomics, item: TFG | – | 1 nM, 6 h, protein median | baseline: DMSO | SILAC ratio | 0.93 |
| CC(C)(C)C(=O)OCOP(=O)(OCOC(=O)C(C)(C)C)C1CCCN(O)C1=O (stereo not shown) | LOX IMVI | – | – | – | – | CC50 | > 100 µM |
| COc1cc(C(SC(C)C)SC(C)C)ccc1OCCNS(=O)(=O)c1ccc(F)c(Cl)c1 | Tobacco mosaic virus | protective activity | plant in vivo | – | – | EC50 | 631.1 ± 2.9 µg/mL (≈ 1210 µM) |
| CN1C(=O)C(C2C3=C(CC(C)(C)CC3=O)Oc3ccc([N+](=O)[O-])cc32)C(=O)N(C)C1=O (stereo not shown) | 3T3-L1 preadipocytes | adipogenesis, Oil Red O staining | – | IC20, 14 days, single replicate | – | lipid content | 0.643 OD492 and 0.651 OD492 and 0.668 OD492 |
| O=C(O)c1ccc(-c2nc(-c3ccccc3Cl)c3sccn23)cc1 | K562 | CellROX Red | – | 0.1 mM, 48 h | – | ROS level | 58900 RFU |
| CC(C)[C@@H]1NC(=O)[C@H](C)NC(=O)[C@H](Cc2ccc(O)cc2)NC(=O)[C@H](CC(=O)O)NC(=O)[C@@H](NC(=O)[C@H](CCCCN)NC(=O)[C@H](CC(=O)O)NC(=O)[C@H](Cc2c[nH]cn2)NC(=O)[C@@H](NC(=O)[C@H](Cc2ccccc2)NC(=O)[C@@H](N)Cc2ccccc2)C(C)C)CCSSCC[C@@H](C(=O)N[C@@H](CCCCN)C(=O)NCC(=O)N[C@@H](CO)C(=O)N[C@@H](CCCCNC(=O)CCCC[C@@H]2SC[C@@H]3NC(=O)N[C@@H]32)C(N)=O)NC(=O)[C@H](CCC(N)=O)NC(=O)[C@H](Cc2c[nH]cn2)NC1=O | anti-HA antibody 12CA5, mouse | biolayer interferometry | – | 30 °C | – | koff | 4.72e-05 s⁻¹ |

For quick reference, copied from above:
| Structure (SMILES) | target or system | assay | system | conditions | scale | endpoint | value |
| --- | --- | --- | --- | --- | --- | --- | --- |
| COc1ccccc1-c1n[nH]c2nc(NC3CCN(C(=O)Cc4ccc(F)cc4F)CC3)ncc12 | – | bead binding, competition bead pull-down, item: LINJ.25.1160 | Leishmania donovani axenic amastigote extract | 10 µM | baseline: vehicle | relative abundance | 1.4 |
